Measurements from different studies.
Compare with care: the assays were run in different laboratories. Values joined by “and” are separate records of one study, mostly repeats; a detail may differ. ± marks the error that the study gave. Converted amounts (≈) assume the structure as drawn.
TDP1: Tyrosyl-DNA phosphodiesterase 1 (TDP1, Homo sapiens, UniProt Q9NUW8)
UniProt Q9NUW8, sequence (whole entry, looked up): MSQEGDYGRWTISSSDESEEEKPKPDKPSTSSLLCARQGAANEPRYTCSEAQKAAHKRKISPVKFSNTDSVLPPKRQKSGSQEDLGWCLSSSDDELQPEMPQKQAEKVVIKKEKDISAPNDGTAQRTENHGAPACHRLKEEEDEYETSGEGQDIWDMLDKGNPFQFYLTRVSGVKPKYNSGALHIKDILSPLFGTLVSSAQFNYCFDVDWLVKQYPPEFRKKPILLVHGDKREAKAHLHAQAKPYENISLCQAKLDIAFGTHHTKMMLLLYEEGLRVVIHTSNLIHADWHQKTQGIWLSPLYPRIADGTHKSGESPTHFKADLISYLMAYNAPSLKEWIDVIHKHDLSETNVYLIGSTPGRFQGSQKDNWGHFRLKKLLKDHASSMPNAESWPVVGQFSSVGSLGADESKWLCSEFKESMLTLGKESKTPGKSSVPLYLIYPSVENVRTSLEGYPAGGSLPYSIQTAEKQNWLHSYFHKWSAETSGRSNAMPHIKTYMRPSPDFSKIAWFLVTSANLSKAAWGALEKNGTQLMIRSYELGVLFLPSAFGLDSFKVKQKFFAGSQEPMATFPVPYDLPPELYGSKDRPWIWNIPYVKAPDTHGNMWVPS

| Compound | target or system | test | system | conditions | scale | measurement | value |
| --- | --- | --- | --- | --- | --- | --- | --- |
| Nc1nc(-c2ccc(Cl)cc2)nc2[nH]nc(Nc3cccc(F)c3)c12 | rhinovirus A2 | viral cytopathic effect | HeLa |  |  | IC50 | 2.23 µM |
| Cc1ncsc1-c1ccc(C(C)NC(=O)C2CC(O)CN2C(=O)C(NC(=O)CCCCCCCCCCN2CCCC(Nc3ncc(Cl)c(Nc4ccccc4S(=O)(=O)C(C)C)n3)C2)C(C)(C)C)cc1 (stereo not drawn) | 22Rv1 | RNA-seq, measured: LRFN3 mRNA |  | concentration not given | baseline: DMSO | log2 fold change | -1.25 |
| O=C(CCCc1cn(C[C@H]2O[C@@H]3O[C@H]4[C@H](O)[C@@H](O)[C@@H](O[C@H]5[C@H](O)[C@@H](O)[C@@H](O[C@H]6[C@H](O)[C@@H](O)[C@@H](O[C@H]7[C@H](O)[C@@H](O)[C@@H](O[C@H]8[C@H](O)[C@@H](O)[C@@H](O[C@H]2[C@H](O)[C@H]3O)O[C@@H]8Cn2cc(CCCC(=O)N[C@H]3CCOC3=O)nn2)O[C@@H]7Cn2cc(CCCC(=O)N[C@H]3CCOC3=O)nn2)O[C@@H]6Cn2cc(CCCC(=O)N[C@H]3CCOC3=O)nn2)O[C@@H]5Cn2cc(CCCC(=O)N[C@H]3CCOC3=O)nn2)O[C@@H]4Cn2cc(CCCC(=O)N[C@H]3CCOC3=O)nn2)nn1)N[C@H]1CCOC1=O | Escherichia coli | LuxR reporter, antagonist | DH5α sensor strain | 1 µM, with: OHHL 200 nM |  | inhibition | 2 ± 1% |
| C/C=C(/C)C(=O)O[C@@H]1C=C(C)CC[C@]2(O)[C@@H](C(C)C)CC(=O)[C@]12C | Helicobacter pylori | microbial growth, broth dilution |  | 0.98 µg/mL |  | inhibition | 0% |
| CC(C)C[C@H](NC(=O)[C@H](Cc1ccc(O)cc1)NC(=O)[C@@H]1CCCN1C(=O)[C@H](CCCNC(=N)N)NC(=O)[C@@H]1CCCN1C(=O)[C@H](CCCCN)NC(=O)[C@H](CC(=O)O)NC(=O)[C@@H]1CCCN1C(=O)[C@H](CCCNC(=N)N)NC(=O)C1(N)CCCCC1)C(=O)N1CCC[C@H]1C(=O)N[C@@H](CCCNC(=N)N)C(=O)N1CCC[C@H]1C(=O)N[C@@H](CCCNC(=N)N)C(=O)N1CCC[C@H]1C(=O)N1CCC[C@H]1C(=O)N[C@@H](CCCNC(=N)N)C(=O)N1CCC[C@H]1C(=O)N[C@H](C(=O)N[C@@H](CCCNC(=N)N)C(=O)N[C@@H](CSCc1cccc(CSC[C@H](NC(=O)[C@H](CCCNC(=N)N)NC(=O)[C@@H](NC(=O)[C@@H]2CCCN2C(=O)[C@H](CCCNC(=N)N)NC(=O)[C@@H]2CCCN2C(=O)[C@@H]2CCCN2C(=O)[C@H](CCCNC(=N)N)NC(=O)[C@@H]2CCCN2C(=O)[C@H](CCCNC(=N)N)NC(=O)[C@@H]2CCCN2C(=O)[C@H](CC(C)C)NC(=O)[C@H](Cc2ccc(O)cc2)NC(=O)[C@@H]2CCCN2C(=O)[C@H](CCCNC(=N)N)NC(=O)[C@@H]2CCCN2C(=O)[C@H](CCCCN)NC(=O)[C@H](CC(=O)O)NC(=O)[C@@H]2CCCN2C(=O)[C@H](CCCNC(=N)N)NC(=O)C2(N)CCCCC2)C(C)C)C(=O)NN)c1)C(=O)NN)C(C)C | Escherichia coli | membrane disruption, propidium iodide uptake | 25922 | 90 min, 37 °C |  | MDC | 19.8 ± 0.8 µg/mL |
| COC1C=COC2(C)Oc3c(C)c(O)c4c(c3C2=O)C2=NC3(CCN(CC(C)C)CC3)NC2=C(NC(=O)C(C)=CC=CC(C)C(O)C(C)C(O)C(C)C(OC(=O)c2cccnc2)C1C)C4=O (stereo not drawn) | Mycobacteroides abscessus | intracellular growth, Hill fit | THP-1 derived macrophages, ATCC 19977 |  |  | IC90 | 0.35 µM |
| CC1C=CC=CC(C)C2C=CC3CC(C)(O)C(Cl)C(C)C3C2C(=O)C(Cl)(Cl)C(=O)C(C)C(=O)O1 (stereo not drawn) | Staphylococcus aureus |  | MRSA clinical isolate | Resistant, OXA, GEN, ERY, CLI, SXT |  | MIC | 0.1 µg/mL (≈ 0.188 µM) |
| CC(=O)O[C@@H]1[C@@H](OC(C)=O)[C@H](Sc2sc(C(=O)c3ccc(C)cc3)c(N)c2-c2nc3ccccc3s2)OC[C@H]1OC(C)=O | coxsackievirus B4 | plaque reduction |  | non-toxic dose NG, mean over three titres |  | viral reduction | 26.7% |
| Cc1cccc2c1N(C(=O)n1ccnn1)CC2 | Arabidopsis thaliana |  | atd14-1 mutant, seedlings | 5 µM, with: (±)-GR24 1 µM |  | hypocotyl length | 7.63 mm |
| Cc1ccc(S(=O)(=O)Nn2c3c(cc(-c4nc5ccccc5s4)c2=O)CCCC3)cc1 | coxsackievirus B4 | viral replication, plaque | BGM | non-toxic dose, mean of three titres |  | plaque reduction | 50% |
| COC1CN([C@H]2CC[C@H]([C@@]3(C)Oc4c(Cl)cc(C(=O)NCc5c(SC)cc(C)[nH]c5=O)c(C)c4O3)CC2)C1 |  | RNA-seq, measured: DENND2B | human, whole blood | dose not given, 24 h | baseline: pretreatment baseline | log2 fold change | 2.27 |
| O=C(O)c1ccc(Nc2c(-c3ccccc3)nc3ccc(CON=Cc4ccc5[nH]ccc5c4)cn23)cc1 (mixture of isomers) | TDP1 | enzyme activity, inhibitor |  | 100 µM, unpurified compound |  | inhibition | 37.6% |
| Cc1ccc(C(=O)c2sc(S)c(-c3nc4ccccc4s3)c2N)cc1 | coxsackievirus B4 | plaque reduction |  | non-toxic dose NG, mean over three titres |  | viral reduction | 26.7% |
| CC(C)(C)NCC(SS(=O)(=O)O)c1ccccc1 (stereo not drawn) | Schistosoma mansoni | perfusion day 44 | infected Swiss Webster mice | 600 mg/kg single dose, dosed day 15 post-infection |  | liver weight | 1.76 g and 1.7 g and 1.84 g and 1.5 g and 2 g |
| Nc1nc(-c2ccc(C(F)(F)F)cc2)nc2[nH]nc(Nc3ccc(F)cc3)c12 | rhinovirus A2 | viral cytopathic effect | HeLa |  |  | IC50 | 0.77 µM |
| CO[C@@H]1OC[C@@H](O)[C@H](O)[C@H]1O | Helicobacter pylori | microbial growth, broth dilution |  | 7.81 µg/mL |  | inhibition | 0% |
| Nc1c(C(=O)c2ccc(Cl)cc2)sc(S)c1-c1nc2ccccc2s1 | coxsackievirus B4 | plaque reduction |  | non-toxic concentration |  | viral titre reduction | 30% |
| Cc1cc(O)c(=O)c(O)cc1C(=O)c1cccs1 | HepDES19 | cell growth or viability, MTS |  | 72 h |  | CC50 | 25.8 µM |
| O=C(O)c1ccc(Nc2c(-c3ccc(CON=Cc4cccn4-c4sc5c(c4C(=O)O)CCCC5)cc3)nc3cc(-c4ccccc4)ccn23)cc1 (mixture of isomers) | TDP1 | enzyme activity, inhibitor |  | 100 µM, unpurified compound |  | inhibition | 102% |
| CC=C(C)C(=O)OC1CC2C(C=C(C)C3C(OC(C)=O)CC(=O)C13C)OC(=O)C2C (stereo not drawn) | Helicobacter pylori | microbial growth, broth dilution |  | 3.9 µg/mL |  | inhibition | 0% |
| CC(=O)O[C@@H]1[C@@H](OC(C)=O)[C@H](Sc2sc(C(=O)c3ccc(Cl)cc3)c(N)c2-c2nc3ccccc3s2)OC[C@H]1OC(C)=O | human adenovirus 7 | plaque reduction |  | non-toxic dose NG, mean over three titres |  | viral reduction | 0% |
| CCCCC(CC)COC(=O)CC(C(=O)OCC(CC)CCCC)S(=O)(=O)O.COC(=O)Nc1nc2cc(C(=O)c3ccccc3)ccc2[nH]1 (stereo not drawn) | Cryptococcus neoformans var. grubii | EUCAST broth microdilution | KN99α reference strain | 72 h, 37 °C, RPMI with 2% glucose |  | IC90 | 1.25 µM |
| Cc1cc(C(=O)Nc2nc3cccc(C)c3n2[C@H]2CCCCN(C(=O)/C=C/CN(C)C)C2)ccn1 | Trypanosoma brucei rhodesiense | growth inhibition, CellTiter-Glo | STIB900 | 48 h, mean value |  | EC50 | 0.033 µM |
| CC(=O)O[C@@H]1[C@@H](OC(C)=O)[C@H](Sc2sc(C(=O)c3ccc(Br)cc3)c(N)c2-c2nc3ccccc3s2)OC[C@@H]1OC(C)=O | human adenovirus 7 | plaque reduction |  | non-toxic dose NG, mean over three titres |  | viral reduction | 30% |
| CC1(F)CN(C(=O)Cn2c(=O)c(C(=O)NCc3ccc(Cl)cc3)cc3nc(N4CCN(CCN)C4=O)cnc32)C1 | Epstein-Barr virus | viral replication, qPCR |  | retest 1 |  | EC50 | 0.071 µM |
| C=C(NC(=O)c1csc(-c2nc3c(cc2O)-c2nc(cs2)C(=O)NC(C(C)O)C(=O)NC(=C(C)OC)c2nc(cs2)C(=O)NC2c4nc(cs4)C(=O)NC(COC(=O)c4c5c6c(cccc6n4O)COC(=O)C(OC4CC(C)(O)C(N(C)C)C(C)O4)C2OC5)c2nc-3cs2)n1)C(N)=O (stereo not drawn) | Streptococcus pneumoniae |  | -25, immunocompromised mice, lung | 4 mg/kg/day once daily, 24 h post-dose |  | lung bacterial load | 5.75 log10 CFU/lung |
| Cc1ccc(Nc2n[nH]c3nc(-c4ccccc4)nc(N)c23)cc1 | rhinovirus A2 | viral cytopathic effect | HeLa |  |  | IC50 | 5.66 µM |

A few entries again:
| Compound | target or system | test | system | conditions | scale | measurement | value |
| --- | --- | --- | --- | --- | --- | --- | --- |
| C/C=C(/C)C(=O)O[C@@H]1C=C(C)CC[C@]2(O)[C@@H](C(C)C)CC(=O)[C@]12C | Helicobacter pylori | microbial growth, broth dilution |  | 0.98 µg/mL |  | inhibition | 0% |
| CC(C)C[C@H](NC(=O)[C@H](Cc1ccc(O)cc1)NC(=O)[C@@H]1CCCN1C(=O)[C@H](CCCNC(=N)N)NC(=O)[C@@H]1CCCN1C(=O)[C@H](CCCCN)NC(=O)[C@H](CC(=O)O)NC(=O)[C@@H]1CCCN1C(=O)[C@H](CCCNC(=N)N)NC(=O)C1(N)CCCCC1)C(=O)N1CCC[C@H]1C(=O)N[C@@H](CCCNC(=N)N)C(=O)N1CCC[C@H]1C(=O)N[C@@H](CCCNC(=N)N)C(=O)N1CCC[C@H]1C(=O)N1CCC[C@H]1C(=O)N[C@@H](CCCNC(=N)N)C(=O)N1CCC[C@H]1C(=O)N[C@H](C(=O)N[C@@H](CCCNC(=N)N)C(=O)N[C@@H](CSCc1cccc(CSC[C@H](NC(=O)[C@H](CCCNC(=N)N)NC(=O)[C@@H](NC(=O)[C@@H]2CCCN2C(=O)[C@H](CCCNC(=N)N)NC(=O)[C@@H]2CCCN2C(=O)[C@@H]2CCCN2C(=O)[C@H](CCCNC(=N)N)NC(=O)[C@@H]2CCCN2C(=O)[C@H](CCCNC(=N)N)NC(=O)[C@@H]2CCCN2C(=O)[C@H](CC(C)C)NC(=O)[C@H](Cc2ccc(O)cc2)NC(=O)[C@@H]2CCCN2C(=O)[C@H](CCCNC(=N)N)NC(=O)[C@@H]2CCCN2C(=O)[C@H](CCCCN)NC(=O)[C@H](CC(=O)O)NC(=O)[C@@H]2CCCN2C(=O)[C@H](CCCNC(=N)N)NC(=O)C2(N)CCCCC2)C(C)C)C(=O)NN)c1)C(=O)NN)C(C)C | Escherichia coli | membrane disruption, propidium iodide uptake | 25922 | 90 min, 37 °C |  | MDC | 19.8 ± 0.8 µg/mL |
